Assay results pooled from the literature.
Each line is one published result; not all experiments were run side by side. ± gives the spread as reported. Converted amounts (≈) assume the structure as drawn.

Compound | organism | test | system | setting | how to read | quantity | result
CN(C)CCC=C1c2ccccc2OCc2c1oc1ccccc21 | SARS-CoV-2 | viral replication, high-content imaging screen | BetaCov/Belgium/GHB-03021/2020 | cell-based |  | EC50 | > 100 µM
Cc1ccc2nc(C3CCCN(Cc4cccc(-c5cccnc5)c4)C3)[nH]c(=O)c2c1 (stereo not drawn) | SARS-CoV-2 | cytopathic effect | USA_WA1/2020 | retest, 8-point, duplicates |  | maximum response | 69.7%
O=c1ccn([C@@H]2O[C@](F)(CO)[C@@H](O)[C@H]2O)c(=O)[nH]1 | Junin virus | viral replication | Vero, recombinant Romero |  |  | EC90 | 0.0072 ± 0.0019 µM
CN(C)c1cccc(C(=O)NCC2CCN(c3cc(-c4ccc(Cl)cc4)n[nH]3)CC2)c1 | SARS-CoV-2 | cytopathic effect | USA_WA1/2020 | round 2, 5-point |  | maximum response | 68.7%
O=C(Nc1ncc(Cc2ccccc2)s1)C1CCOCC1 | Histoplasma capsulatum | microbial growth |  |  |  | MIC | > 20 µM
CNc1nc(N)ncc1-c1cn([C@@H]2O[C@H](CO)[C@@H](O)[C@@]2(C)F)cn1 | MERS coronavirus |  |  | concentration not given |  | antiviral activity | inactive
NCCCCCc1cnc[nH]1 | Marburg virus | pseudovirus entry | A549 |  | baseline: CC50 over IC50 | selectivity index | 1
O=C(NCC1CCOC2(CCN(C(=O)C3(c4ccccc4)CCCC3)CC2)C1)c1ccncc1 (stereo not drawn) | Venezuelan equine encephalitis virus | viral replication |  | 40 µM |  | inhibition | 40%
CC[C@@H]([C@H](C)O)n1ncn(-c2ccc(N3CCN(c4ccc(OC[C@@H]5CO[C@@](Cn6cncn6)(c6ccc(F)cc6F)C5)cc4)CC3)cc2)c1=O | SARS-CoV-2 | viral replication, high-content imaging screen |  | cell-based |  | EC50 | > 100 µM
Cn1c(=O)ccc2ccc(F)c(CCNC[C@H]3CN(c4cnc5c(n4)NC(=O)CO5)C(=O)O3)c21 | Yersinia pestis | microbial growth |  |  |  | MIC50 | < 0.015 µg/mL
Cc1ccc2nc(Cl)c3cc(C(=O)NCCCN4CCC(C)CC4)sc3c2c1 | SARS-CoV-2 | cytopathic effect | USA_WA1/2020 | round 2, 5-point |  | efficacy | 70.7%
O=C1c2c(O)c(=O)ccn2N([C@@H]2c3ccccc3SCc3c2ccc(F)c3F)[C@@H]2COCCN12 | Influenza A virus | viral replication | A(H7N3) | mean |  | EC50 | 0.00011 ± 3e-05 µM
CCCSc1ccccc1N1CCN(CCCCn2c(=O)[nH]c3ccccc3c2=O)CC1 | SARS-CoV-2 | viral replication, GFP plate reader screen |  | cell-based |  | EC50 | 9.12 µM
O=c1nc(NO)ccn1[C@@H]1O[C@H](CO)[C@@H](O)[C@H]1O | SARS-CoV-2 Washington strain | viral replication, qRT-PCR | Caco-2 |  |  | EC90 | 12.2 ± 12.4 µM
Nc1ncnc2c([C@@H]3N[C@H](CO)[C@@H](O)[C@H]3O)c[nH]c12 | Marburg virus | viral replication | HeLa, Angola | 200 µM |  | inhibition | 99%
CCc1csc(CNC(=O)c2sc(OC)nc2C)n1 | Lassa mammarenavirus | viral replication | Huh-7 | 10 µM, 72 h |  | remaining activity | 53%
CC(C)(C)NC(=O)[C@@H]1C[C@@H]2CCCC[C@@H]2CN1C[C@@H](O)[C@H](Cc1ccccc1)NC(=O)[C@H](CC(N)=O)NC(=O)c1ccc2ccccc2n1 | SARS-CoV-2 | viral replication, GFP plate reader screen |  | cell-based |  | EC50 | > 100 µM
C=C[C@@](C)(/C=C/c1ccc(O)cc1)CCC=C(C)C | Severe acute respiratory syndrome coronavirus 2 | cytopathic effect, inhibitor | Vero C1008 | 0.7812 µM |  | inhibition | 0%
CN1CCCC(n2nc(Cc3ccc(Cl)cc3)c3ccccc3c2=O)CC1 (stereo not drawn) | SARS-CoV-2 | viral replication, GFP plate reader screen |  | cell-based |  | EC50 | 13.3 µM
O=C(NCCCN1CCCCC1)c1cc(Sc2ccc(Cl)cc2)nc2ccccc12 | SARS-CoV-2 | cytopathic effect | USA_WA1/2020 | retest 8-point |  | efficacy | 99.3%
O=C(Nc1ccc(N2CCN(C(=O)c3cnccn3)CC2)nc1)c1cnccn1 | Mycobacterium tuberculosis | bacterial growth | H37Ra-lux | 168 h |  | IC90 | > 64 µM
CCCCCCCCCCCCCCNC(=O)CP(=O)(O)O | Bacillus anthracis |  | Davis |  |  | MIC90 | 1.56 µg/mL (≈ 4.65 µM)
O=C(Nc1ccc(N2CCCN(C(=O)c3cnccn3)CC2)nc1)c1ccc(Br)cc1Cl | Mycobacterium tuberculosis | bacterial growth | H37Ra-lux | 168 h |  | IC90 | > 64 µM
CS(=O)(=O)NCC1CCOC2(CCN(C(=O)C3(c4ccccc4)CCCC3)CC2)C1 (stereo not drawn) | Venezuelan equine encephalitis virus | viral replication |  |  |  | EC50 | 7.94 µM

Compound | organism | test | system | setting | how to read | quantity | result
O=C(Nc1ccc(N2CCN(C(=O)c3cnccn3)CC2)nc1)c1cccc([N+](=O)[O-])c1 | Mycobacterium tuberculosis | bacterial growth | H37Ra-lux | 168 h |  | IC90 | > 64 µM
COc1ccc2cc1Oc1ccc(cc1)C[C@H]1c3c(cc4c(c3Oc3cc5c(cc3OC)CCN(C)[C@@H]5C2)OCO4)CCN1C | African swine fever virus |  | pig, organs and swabs | dose not given |  | viral load | no effect
Cc1cccc(CN2CC(=O)N[C@@H](CC(C)C)c3nc(cs3)C(=O)N[C@@H](Cc3ccccc3)c3nc(C)nn3CC(=O)N[C@@H](C(C)C)C2)n1 | Lassa mammarenavirus | viral replication | Huh-7 | 10 µM, 72 h |  | remaining activity | 85%
CCc1c(C(=O)C(N)=O)c2c(OCC(=O)O)cccc2n1Cc1ccccc1 | Daboia russelii |  | mouse | intravenous, 120 µg, up to 24 h, given 0 min after venom, added: northern venom intraperitoneal |  | time of death | > 24 h
COc1ccc(C[C@@H]2c3cc(Oc4cc(C[C@@H]5c6cc(O)c(OC)cc6CCN5C)ccc4O)c(OC)cc3CCN2C)cc1 | SARS-CoV-2 | cytopathic effect | Vero E6 | 100 µM, replicate run |  | inhibition | 75%
CCN(CC)CCNC(=O)c1ccc(NS(C)(=O)=O)cc1 | SARS-CoV-2 | viral replication, GFP plate reader screen |  | cell-based |  | EC50 | 3.89 µM
COc1cc2c(O)c3c(c(-c4ccc5c(c4)OCO5)c2cc1OC)C(=O)N(/N=C/c1ccc(C#N)cc1)C3 | VSV pseudotyped with Ebola virus GP | viral entry, measured: GFP | HeLa |  |  | IC50 | 1690 ± 233 nM
CNC(=NCCSCc1csc(N=C(N)N)n1)NC#N | Ebola virus Zaire | pseudovirus entry | A549 |  | baseline: CC50 over IC50 | selectivity index | 1
Cc1nc2n(n1)CC(=O)N[C@@H](C(C)C)CN(C(=O)CC1CCCC1)CC(=O)N[C@@H](CC(C)C)c1nc(cs1)C(=O)N[C@H]2Cc1ccccc1 | Lassa mammarenavirus | viral replication | Huh-7 | 10 µM, 72 h |  | remaining activity | 98%
CCN(CC)CCCNC(=O)CSc1c2c(nc3cc(Cl)ccc13)CCCC2 | SARS-CoV-2 | cytopathic effect | USA_WA1/2020 | round 2, 5-point |  | efficacy | 95.5%
CN(C)CCOC(C)(c1ccccc1)c1ccccn1 (stereo not drawn) | Ebola virus Zaire | pseudovirus entry | A549 |  | baseline: CC50 over IC50 | selectivity index | > 7
CNC(=O)[C@@H](NC(=O)[C@H](CC(C)C)[C@H](O)C(=O)NO)C(C)(C)C | Daboia russelii |  | mouse | intravenous, 60 µg/mouse, 24 h, drug mixture, added: WB venom 2.5 x LD50 preincubated |  | survival | 0%
CC(C)=CCc1c(O)ccc(C(=O)/C=C/c2ccc(O)cc2)c1O | Severe acute respiratory syndrome coronavirus 2 | cytopathic effect, inhibitor | Vero C1008 | 100 µM |  | inhibition | 90%
Cc1ccnc(CC(C)N(C)C(=O)c2cc3cnccc3nc2C)c1 (stereo not drawn) | Lassa mammarenavirus | viral replication | Huh-7 | 10 µM, 72 h |  | remaining activity | 26%
C[C@H]1[C@H]2CC[C@H]3[C@@H]4CC=C5C[C@@H](N(C)C)CC[C@]5(C)[C@H]4CC[C@]23CN1C | SARS-CoV-2 | viral replication, GFP plate reader screen |  | cell-based |  | EC50 | 12 µM
Cc1ccc(CN2CCN(C)C(=O)[C@H](C)NC(=O)CN(C)C(=O)[C@@H](Cc3c[nH]c4ccccc34)NC(=O)c3csc(n3)[C@H](CC(C)C)NC(=O)C2)cc1 | Lassa mammarenavirus | viral replication | Huh-7 | concentration not given |  | Emax | 98.6%
COc1ccc(Nc2cc(C(=O)NCCCN3CCN(c4ccc(OC)cc4)CC3)c3ccccc3n2)cc1 | SARS-CoV-2 | cytopathic effect | USA_WA1/2020 | round 2, 5-point |  | efficacy | 46.8%
COc1cccc2c1OCC(CNC(=O)c1cc(C3CC3)n[nH]1)C2 (stereo not drawn) | Lassa mammarenavirus | viral replication | Huh-7 | 10 µM, 72 h |  | remaining activity | 46%
COc1ccc2c(Sc3ccccc3)c(C(=O)NCCCN3CCCCC3)[nH]c2c1 | SARS-CoV-2 | cytopathic effect | USA_WA1/2020 | round 2, 5-point |  | maximum response | 83.3%
CCC(=O)c1ccc2c(c1)N(CCCN1CCN(CCO)CC1)c1ccccc1S2 | SARS-CoV-2 | viral replication, GFP plate reader screen |  | cell-based |  | EC50 | > 100 µM
Fc1ccc2[nH]c(C3CCCCN3Cc3nnc(-c4ccco4)o3)nc2c1 (stereo not drawn) | Lassa mammarenavirus | viral replication | Huh-7 | 10 µM, 72 h |  | remaining activity | 40%
O=C(CC1CCCCC1)Nc1ncc(Cc2cccc3ccccc23)s1 | Histoplasma capsulatum | microbial growth |  |  |  | MIC | 0.6 to 1.3 µM (≈ 0.219 to 0.474 µg/mL)
O=C(CCc1ccncc1)N1CCCC(CCc2ccc(F)c(F)c2)C1 (stereo not drawn) | Lassa mammarenavirus | viral replication | Huh-7 | 10 µM, 72 h |  | remaining activity | 49%
CN(C)c1ccc(-c2nc(-c3cccs3)c(-c3cccs3)[nH]2)cc1 | SARS-CoV-2 | cytopathic effect | USA_WA1/2020 | retest, 8-point, duplicates |  | efficacy | 40.6%

Some of these lines once more:
Compound | organism | test | system | setting | how to read | quantity | result
Nc1ncnc2c([C@@H]3N[C@H](CO)[C@@H](O)[C@H]3O)c[nH]c12 | Marburg virus | viral replication | HeLa, Angola | 200 µM |  | inhibition | 99%
CCc1csc(CNC(=O)c2sc(OC)nc2C)n1 | Lassa mammarenavirus | viral replication | Huh-7 | 10 µM, 72 h |  | remaining activity | 53%
